Experimental data of several laboratories.
A part holds a random share of what one study measured.

Set 1
Target: Interferon regulatory factor 3, full length, phosphomimetic (IRF3, Homo sapiens, UniProt Q14653, residues 1-427, S386D/S396D/S398D/S402D/T404D/S405D)
UniProt Q14653, sequence (whole entry, unmodified, looked up): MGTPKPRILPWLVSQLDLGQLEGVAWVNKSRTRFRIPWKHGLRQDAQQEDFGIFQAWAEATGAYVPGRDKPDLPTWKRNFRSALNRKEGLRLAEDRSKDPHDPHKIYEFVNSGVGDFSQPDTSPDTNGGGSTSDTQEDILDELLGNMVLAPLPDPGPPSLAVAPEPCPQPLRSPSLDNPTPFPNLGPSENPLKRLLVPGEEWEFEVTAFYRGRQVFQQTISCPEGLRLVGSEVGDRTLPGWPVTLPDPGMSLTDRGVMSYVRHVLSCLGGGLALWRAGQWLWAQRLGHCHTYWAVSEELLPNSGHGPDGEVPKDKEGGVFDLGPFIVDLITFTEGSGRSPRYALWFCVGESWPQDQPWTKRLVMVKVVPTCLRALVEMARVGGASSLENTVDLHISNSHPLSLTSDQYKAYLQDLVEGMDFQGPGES
Method: protein-binding microarray
Molecule type: double-stranded DNA, one strand shown
Sample: in vitro
Tested at: 2540 nM top
Setting: 60-bp whole probe
Together with: salmon DNA 0.4 mg/ml
Reference: random background probes
Reading: higher = stronger binding
Measurement: fitted relative affinity
Shared flanks, not repeated: GCCTAGCAC … GTCTTGATTCGCTTGACGCTGCTG
TCACCTTCACCTCTCTGACTGTGCTAG: 0.539 z-score
CTAGGTCTCGGTTTCGGTTAGTGCTAG: 5.06 z-score
GATTTTTTCTGCTTAGAGCTGTGCTAG: 0.631 z-score
GACGGACTGAGACTGGAGACGTGCTAG: -0.536 z-score
CTAATTTTCATTTTCCAAATGTGCTAG: 5.81 z-score
GACGGACTGGGTGTCGGGACGTGCTAG: -0.335 z-score
TTAGGTCTCGACTTTCGGTTAGTGCTA: 1.04 z-score
GTAGGACTGCTTATCCTTTAGTGCTAG: -0.25 z-score
TTAGATATCAGTATCGCTTAGTGCTAG: 1.6 z-score
AGAATGATCTTCCTTCATGGCGTGCTA: 0.185 z-score
TTAGGTATGGGTATCGGTTAGTGCTAG: 0.587 z-score
GACGGTTTCGACTATCGGGAAGTGCTA: 3.02 z-score
GACGGTCGCCTTCTCCTGACGTGCTAG: 1.59 z-score
TTAGATCTTAGACTGGATTAGTGCTAG: -0.345 z-score
TCAGTTCCCTATTTAAGACTGTGCTAG: 4.53 z-score
TTAGATATCGGGTTTCGACTAGTGCTA: 0.801 z-score
TTAGGTCGCGGTATCGGTTAGTGCTAG: 1.74 z-score
TCAACACTGGTTTTTACACTGTGCTAG: -0.276 z-score
GACGGTTTCGACTATCGCGACGTGCTA: 2.89 z-score
TTAGGTTTCCGTATCCTTTAGTGCTAG: 6.77 z-score
GACGGTTTCCTTGTCCTGACGTGCTAG: 5.39 z-score
TTGCTTTCCTTCTTGAACTCGTGCTAG: 8.42 z-score
TTAGGTCTCCTTATCCGTTAGTGCTAG: 2.73 z-score
TTAGATTTCAGTATAGATTAGTGCTAG: 1.41 z-score
GACGAACTGGGGGATCGAGACGTGCTA: -0.153 z-score

Set 2
Target: RNA binding protein fox-1 homolog 2, RRM domain, GST-SBP tag (RBFOX2, Homo sapiens, UniProt O43251-10, residues 100-194)
Method: RNA Bind-n-Seq
Molecule type: RNA
Sample: in vitro
Tested at: 365 nM
Setting: natural RNA segment, single round, ends assumed
Reference: no-protein control
Reading: higher = stronger binding
Measurement: RBNS enrichment (R)
Shared flanks, not repeated: GGGAGUUCUACAGUCCGACGAUC … UGGAAUUCUCGGGUGCCAA
Residues (chain): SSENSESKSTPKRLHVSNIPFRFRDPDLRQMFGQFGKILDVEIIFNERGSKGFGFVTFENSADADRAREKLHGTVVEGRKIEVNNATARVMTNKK
AAGAUGAAUCUGUUUGUAUGUAUCCUUGUCAAAUAUAUUCUAUAAUGAAAUAAAAUCUGAAAAGUGGAUUUCUUAUUGACCUAUAUUCAUGAAAGCAUAUAAAUUAAAAU: 0.465
CAAAUGUUUGCCCUGGUGGUUCCUAUCUCUUCAGGCAAACAUGGUCAGUAUUCUGUAAAGUUCCCCUGGCCUAAAUGAUUACUUGCUCUGGGCAAGUGGAUAUUUAUUAG: 0.348
GGAAGCAUUUUGGAUAUGAUGCAGGAAAUCUCUUCCUGGAGUCAAAAGUUCCCAAGAGGUCCUGUAUUUUUAAGAAAUGGAAUUUAUUUAAAUAAUAUUUAAGCUUGUGC: 1.23
UAAUCCCAAAUGUGAUAGUAGCUUCAGUAUGUUUCCUCACCCAAAAACCAUUUGGCUGGCAGAAAUUAUCUAGAAAAAUUAUUAUUUUGCAGUUAUCUGAGACACCAAAC: 0.401
UUUAGGGUACUGUCCUGGUCAAAAUGACCUAAGGGGAAACCGUUGUUGUAAACCUCUUUAUUUUGGUGACUGUGACCACUUCUUUGUAGCCACCAAUUGUAGUGACCAGU: 0.316
AGUUGAAGCAGUCCGUGUGCAAAGCCUGCAUCUAAACACUUGCGUUAAUAAGUCAUUAACCGCUCAGUACCAGAUGUGGCAAAUCUCAAGUGAUUGUGGACUCCUGGCUC: 0.23
GCUUCACCAGGUGCAGGCUGCUAUGGGCUUGUGGAAACCACAGGUACAGGUGGGAUUUCAUGGGUCCAUGUGUUACAAAAAUAAGAAUUGGAGCAUUAACUUGAAAUUGU: 0.414
AUUGUUUUCCUGACAGCAAAAGACUAAUGUGACAAAAUGAAGUCAUUGUAAAGAAGCGAUGCAACUUGUCAAAUAUUUAAUAAAGAAUUAUGGAAGCUGGAACAUUUUCU: 0.565
GACUCCACUCACGGGCCAAGUUUGGCCCAGUCAUUUUUGUAUGGGGAAAAAACUAAAAAGGUUUUUUACAUUUUUAAAAGGAAGACAUUCGUGACUGAGACCAUACGUGG: 0.567
GGUUUGCUCAUACAGCAUUUGGAUACUAAGCCAUUAUUUGCCGCUGUUGGUACUUAUACAAAGAAAAAUCAGCCCUGCCCUUUAGGACCUGAAAAUGCAACAGAAAGGGA: 0.365
CAAGUAACAUGAGCGGAUAAAAAGAGACUUGUUUGUGCUAGAAAUGAGGGUCUAUGCUAUGAGGGGGUCCAAGACUCUGGCGAAAUGUGCUUUUUCAUCAAUGGAGAAAU: 1.62
UCUGGCCCAGUGAGCAGCUCAGCCCACGUGACCUUUGGGUUGUAGAAAUAAAGUGCAUGAACUGUUCUCUGCUAUAUCCUAGUCUCCCACACAGUGCGAGUCGGAGUGAG: 2.7

Set 3
Target: TAR DNA-binding protein 43, full length, His tag (TARDBP, Homo sapiens, UniProt Q13148, residues 1-414)
Method: RNA Bind-n-Seq
Molecule type: RNA
Sample: in vitro
Tested at: 20 nM
Setting: 6-mer, flanks averaged, single round
Together with: 150 mM LiCl
Reference: input library
Reading: higher = stronger binding
Measurement: 6-mer enrichment (R)
AAUACC: 0.848
AGCUCU: 0.855
UUUCAG: 0.937
AUAUGU: 1.09
GCUAUU: 0.972
GAGUGU: 1.6
UUGACU: 0.944
ACUCUC: 0.888
CACACG: 0.834
AGAAUU: 0.942
GUGUCC: 1.09
ACACUG: 0.861
CAUCUG: 0.815
AGCACU: 0.83
AUCUAU: 0.892
AUCCCA: 0.875
CAUGCA: 0.903
ACGCUU: 0.86
CGCUUG: 0.922
UCCUCG: 0.854
UUAAGA: 0.886
GUUUGU: 1.69
CCUUAA: 0.93
UCUAUG: 0.924
GGCGAA: 0.973

Set 4
Target: Histone acetyltransferase KAT6A, winged helix 2, GST fusion (KAT6A, Homo sapiens, UniProt Q92794, residues 85-181)
Method: protein binding microarray
Molecule type: double-stranded DNA, one strand shown
Sample: in vitro
Tested at: not given
Setting: 8-mer, flanks averaged, mean of 2 arrays, mostly near background
Reference: not given
Reading: higher = stronger binding
Measurement: E-score
Residues (chain): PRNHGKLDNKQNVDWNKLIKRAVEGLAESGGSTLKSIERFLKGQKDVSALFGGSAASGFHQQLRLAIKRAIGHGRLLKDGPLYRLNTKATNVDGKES
GCGGTACC: 0.171
CTTGTTAA: -0.0297
AGCTTTTC: -0.123
AGGCAATA: -0.00879
ATTATAGG: -0.0745
AGGGTGGA: 0.0267
AACCGAAG: 0.0248
AGATGATC: -0.0255
AGCTGGAG: -0.0261
GTTAATGA: -0.0369
CATAAGAC: -0.22
CGGCTTGC: 0.251
CAAAAAAG: 0.107
AATCAAGG: -0.046
CCAGGCGC: 0.133
CGATGTAG: -0.0213
CCAGCACC: -0.184
CCCTCGAA: 0.027
ATCAGAAA: 0.00482
GCTAGCCC: -0.165
CATTGAAG: 0.0921
AAGTCATA: -0.0423
ACGCCTCA: -0.0854
CCTGGCAG: 0.077
GACCGTAA: -0.0243

Set 5
Target: RING finger protein unkempt homolog, zinc fingers 1-6, GST-SBP tag (UNK, Homo sapiens, UniProt Q9C0B0, residues 30-357)
Method: RNA Bind-n-Seq
Molecule type: RNA
Sample: in vitro
Tested at: not given
Setting: RNA with constant flanks, human-mouse chimeric sites, ends assumed
Reference: input RNA pool
Reading: higher = stronger binding
Measurement: bound/input enrichment
Shared flanks, not repeated: GGGAGUUCUACAGUCCGACGAUC … CAACAGAGGAUUGAGCAUCA
Construct (chain): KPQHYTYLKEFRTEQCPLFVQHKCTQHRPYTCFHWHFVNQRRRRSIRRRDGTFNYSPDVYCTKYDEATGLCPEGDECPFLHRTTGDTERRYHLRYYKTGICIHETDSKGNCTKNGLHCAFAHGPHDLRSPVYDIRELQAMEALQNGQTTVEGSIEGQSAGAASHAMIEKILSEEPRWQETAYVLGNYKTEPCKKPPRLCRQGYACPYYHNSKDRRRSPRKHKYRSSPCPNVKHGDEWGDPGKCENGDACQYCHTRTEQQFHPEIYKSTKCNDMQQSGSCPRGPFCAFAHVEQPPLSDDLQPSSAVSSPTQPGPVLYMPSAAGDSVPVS
UCCUUGGAACCCAGUCAUAUAGGUGACCUGCAGAAAGCAGACACCAGUAGUCAAGGUGCUUUAGUGUUUCUCUCAAAGGACUACGAAAUAGAAAAUCAAAAUCCCCUGGCCUCUCCUACG: 2.82 ratio
UCCCAAAUCCAGCAGCUAGAAGGAGCCUUGAGACAAAGCCUGGAAAUACAGGGAAGGCGAUAACAUUGUACAUUGGUUUACAUUUUUUCCCCCUGUGGAUUUUUCUAUCCUAGUGCUUGC: 0.267 ratio
CACAGAGCAGCACCUACCCCCUCCUCCUUUCCACACCUGCAAACCCUUUUACUUGGGCUGAAUAUUUAGUGUAAUUACAUCUCAGCUUUGAGGGCUCCUGUGGCAAAAUACCCGGAUAAA: 0.949 ratio
GCUCUUGGGAAUGUAAUCAGCGCCUUGGGGGACAAGAGCAAGAGGGCCACCCAUGUCCCUUACAGAGACUCUAAGCUGACAAGACUCCUACAGGAUUCCCUUGGGGGUAACAGCCAAACC: 0.209 ratio
AAAGAACUUGCUGAUGAUGAAGAUGAGGAAGACAAUGAUGAUGUUGAACCCAUUUCUGAAUUUCGAUUUGUGCCUAGUGAUAAGUCAGCAUUGGAGGCGAUGUUCACAGCAAUGUGUGAG: 0.433 ratio
ACAGUUAUAUUGUUGAGGUUUGUAUUUAUAUAUUCUUGUAGUGUCUGCUUGCCUGUGACUUCUGGUAAAAUAAAAUAUUAAAAUUACAAUAUUUUAGCAUGGUAUUUAACAUUUUCUAAA: 2.55 ratio
CUUCGGAAAAAAAAAUUACCUUUUCUGACAGUGCUUUCCCUCCCAUAGAUCCACGUUCAAGCUCAAAGAGCAAAGGCUCCGCAAACAGCUCAAACAUCUGAUGAAGAAAGAUUUCUGAGA: 0.443 ratio
CCCCAAUACCAUUUGCAGGUCUGGAACUGCACUCUCUUUUUUAAAAAACAUGUAUACAUUUUAGGGCUGUAGAUUUAUUUUCCUGGUUUCUUUUCCAUUGCUUAUUCUUUGAGCACAGAA: 2.13 ratio
UCUUUAAAAAAAAAAUUACCUUUUCUGCAUAUUAUAGCCCUCCCAUAGAUCCACGUUCAAGCUCAAAGAGCAAAGGCUUUGCACGGAGCUCAAACAUAAAAGAAAGAAAGAUUUCUGAGA: 3.44 ratio
GUUGCCAGCUUCCGGUUCCGUUGGGCUCGGUUCUCUCCUGAGCUACGUGUCUCUACGUUUUAGGUGUGCCAUCCAACAAACAUGGAUCAGGUAAUGCAGUUUGUGGAGCCCAGCCGGCAG: 0.115 ratio
AGUGUGCAGGAAUUCAUGACCUUUACAAGUCAACUGAUUGUGGAACGCUCAUCGAAAGGCAGCAGAGCUUCUGUCAAAGAACAAGAGUAUCUUUGCCAUGUCUACGUCCGGAGCGACAGU: 0.0874 ratio

For quick reference, copied from above (set 1):
TTAGGTCTCGACTTTCGGTTAGTGCTA: 1.04 z-score
TTAGATATCGGGTTTCGACTAGTGCTA: 0.801 z-score
CTAGGTCTCGGTTTCGGTTAGTGCTAG: 5.06 z-score
TCAGTTCCCTATTTAAGACTGTGCTAG: 4.53 z-score
CTAATTTTCATTTTCCAAATGTGCTAG: 5.81 z-score
TTAGGTCTCCTTATCCGTTAGTGCTAG: 2.73 z-score
GACGGTTTCGACTATCGGGAAGTGCTA: 3.02 z-score
GACGAACTGGGGGATCGAGACGTGCTA: -0.153 z-score
TTAGATATCAGTATCGCTTAGTGCTAG: 1.6 z-score
TTAGATCTTAGACTGGATTAGTGCTAG: -0.345 z-score
GACGGACTGAGACTGGAGACGTGCTAG: -0.536 z-score
GACGGTTTCGACTATCGCGACGTGCTA: 2.89 z-score
TTGCTTTCCTTCTTGAACTCGTGCTAG: 8.42 z-score
GACGGACTGGGTGTCGGGACGTGCTAG: -0.335 z-score
